Assay results of several laboratories.
Several values in a cell are separate wells, animals, samples, runs or records. ± gives the spread as reported.

Cc1cc(Nc2ccc(S(F)(F)(F)(F)F)cc2)n2nc(C(C)(F)F)nc2n1 — parasite clearance lag phase (Plasmodium vivax; microscopy; infected human patients; dose not given): ≤ 40 h
N=C(N)c1ccc(OCc2cc(COc3ccc(C(=N)N)cc3)cc(-c3ccccc3)c2)cc1 — FICI (Escherichia coli; checkerboard; mcr-3 polymyxin-resistant; unit not given, together with: rifampicin; lower = stronger synergy): 0.031
NC(=O)c1ncn([C@@H]2O[C@H](CO)[C@@H](O)[C@H]2O)n1 — inhibition (hepatitis E virus; viral replication, Renilla luciferase replicon; S10-3 replicon, genotype 1; 3.12 µM, 48 h): 62.5%
CCNCc1nc2c(N)nc3ccccc3c2n1CC(C)(C)O — EC90 (Toxoplasma gondii; parasite growth; HFF, bradyzoite, alkaline-induced): 107 µM
OC[C@H]1O[C@@H](O[C@@H]2[C@@H](O)[C@H](O[C@@H]3[C@@H](O)[C@H](O[C@@H]4[C@@H](O)[C@H](O[C@H]5[C@H](O)[C@@H](CO)OC(O)[C@@H]5O)O[C@H](CO)[C@H]4O)O[C@H](CO)[C@H]3O)O[C@H](CO)[C@H]2O)[C@H](O)[C@@H](O)[C@@H]1O (stereo partly shown) — ΔG (Bacteroides uniformis; binding, ITC; pH 7.0, 25 °C, distal domain): -24 kcal/mol
OC(Cn1cncn1)(Cn1cncn1)c1ccc(F)cc1F — MIC (Nakaseomyces glabratus; RPMI 1640; 24 h, 35 °C): 50 µM
OC[C@H]1O[C@@H](O[C@@H]2[C@@H](O)[C@H](O[C@H]3[C@H](O)[C@@H](CO)OC(O)[C@@H]3O)O[C@H](CO)[C@H]2O)[C@H](O)[C@@H](O)[C@@H]1O (stereo partly shown) — ΔG (Bacteroides uniformis; binding, ITC; pH 7.0, 25 °C, distal domain): -24.7 kcal/mol
CC(=Nc1ccc(N=Cc2cnccn2)cc1)N(C)C — worm burden reduction (Necator americanus; infected hamsters; oral, 25 mg/kg single dose, 49 days post infection): 100%
CCc1cc(Nc2cc(=O)n(CCCCO)c(=O)[nH]2)ccc1C — MIC (Clostridioides difficile; agar dilution anaerobic; ATCC 4381; 48 h): 4 µg/mL
S=C(S)N1CCCC1 — EC90 (Toxoplasma gondii; parasite growth; HFF, bradyzoite, alkaline-induced): 30 µM
COc1cc(C#CC(O)c2ccccc2OC)ccc1O (stereo not shown) — biofilm formation (Pseudomonas aeruginosa; static biofilm; PA14; 10 µM, 24 h; reference: DMSO): 61%
O=c1[nH]c(NCc2ccc(Cl)c(Cl)c2)nc2ncn(CCN3CCOCC3)c12 — MIC (Clostridioides difficile; agar dilution anaerobic; 3588; 48 h): 0.5 µg/mL
OC(Cn1cncn1)(Cn1cncn1)c1ccc(F)cc1F — MIC50 (Nakaseomyces glabratus; EUCAST; RTT_199.3; 48 h): 100 µM
Cc1cc(OC(C)C)ccc1C(=O)C(C)(C)NC(=O)c1sccc1C — inhibition (Botrytis cinerea; conidial germination; B05.10; 0.01 µg/mL): 10.6 ± 0.3%
O=C(C#Cc1ccc(F)c(F)c1)c1ccccc1Cl — mRNA level (Pseudomonas aeruginosa; RT-qPCR, measured: phzC1; biofilm cells; 10 µM, 24 h; reference: untreated): 53%
COc1ccc(-c2noc(-c3ccc(CN)cc3)n2)cc1.Cl — activity (Clostridioides difficile; spore germination; ATCC 43255; 45 µM): inactive
CCOCCn1cnc2nc(NCc3ccc(Cl)c(Cl)c3)[nH]c(=O)c21 — MIC (Clostridioides difficile; agar dilution anaerobic; ATCC 4381; 48 h): 2 µg/mL
OC[C@H]1O[C@@H](O[C@@H]2[C@@H](O)[C@H](O[C@@H]3[C@@H](O)[C@H](O[C@H]4[C@H](O)[C@@H](CO)OC(O)[C@@H]4O)O[C@H](CO)[C@H]3O)O[C@H](CO)[C@H]2O)[C@H](O)[C@@H](O)[C@@H]1O (stereo partly shown) — ΔH (Bacteroides uniformis; binding, ITC; pH 7.0, 25 °C, distal domain): -31.4 kcal/mol
C[C@@H](O)[C@H]1C(=O)N2C(C(=O)O)=C(SCCN=CN)C[C@H]12 — bacterial load (Pseudomonas aeruginosa; BAA-2797, mouse, peritonitis model, liver; intraperitoneal, 10 mg/kg single dose): 7.88 log10 CFU and 7.78 log10 CFU and 8.2 log10 CFU and 8.45 log10 CFU and 7.9 log10 CFU
COc1cc(C#C[C@@H](O)CC(C)C)ccc1O — biofilm formation (Pseudomonas aeruginosa; static biofilm; PA14; 10 µM, 24 h, static; reference: DMSO): 69%
CCc1nc(N)nc(N)c1-c1ccc(Cl)cc1 — inhibition (Toxoplasma gondii; ex vivo bradyzoite plaques; ME49; 3 times EC90, continuous exposure): inhibited
CC(=O)NC[C@H]1CN(c2ccc(N3CCOCC3)c(F)c2)C(=O)O1 — MIC50 (Streptococcus pneumoniae; penicillin-resistant, 10 isolates; serum 50%): 2 µg/mL
O=C(c1ccc(Nc2nccc(-c3cc4ccccc4s3)n2)cc1)N1CCC(N2CCCC2)CC1 — EC90 (Toxoplasma gondii; parasite growth; HFF, bradyzoite, glutamine-induced): 15 µM
COc1cc(-c2[nH]nnc2C(=O)c2ccccc2)ccc1O — biofilm formation (Pseudomonas aeruginosa; static biofilm; PA14; 10 µM, 24 h, static; reference: DMSO): 70%
CC[C@H]1CN2CCc3cc(OC)c(OC)cc3[C@@H]2C[C@@H]1C[C@H]1NCCc2cc(OC)c(OC)cc21 — EC50 (Toxoplasma gondii; parasite growth; HFF, bradyzoite, alkaline-induced): 0.575 µM
COc1ccc(Nc2cnnc3cc(-c4cnc(N5CCCN(C)CC5)nc4)ccc23)nc1 — EC50 (Leishmania donovani; B10R cells): > 10 µM
COc1cc(C#CC(=O)CC(C)C)ccc1O — mRNA level (Pseudomonas aeruginosa; RT-qPCR, measured: lasB; biofilm cells; 10 µM, 24 h; reference: untreated): 70%
Clc1ccc(C(c2ccc(Cl)cc2)n2cc[n+](CC(OCc3ccc(Cl)cc3Cl)c3ccc(Cl)cc3Cl)c2)cc1 (stereo not shown) — EC50 (Toxoplasma gondii; parasite growth; HFF, bradyzoite, alkaline-induced): 5.21 µM
CCc1nc(N)nc(N)c1-c1ccc(Cl)cc1 — parasite survival (Toxoplasma gondii; [3H]uracil incorporation; human fibroblasts, RH wild type; 25 µM): 25.1%
Fc1cccc(N/N=C/c2ccc(-c3cccc(/C=N/Nc4cccc(F)c4)c3)cc2)c1 — selectivity index (Nakaseomyces glabratus; ATCC 2001; reference: mammalian CC50 over MIC): < 0.4
CN[C@H](CC(C)C)C(=O)N[C@H]1C(=O)N[C@@H](CC(N)=O)C(=O)N[C@H]2C(=O)N[C@H]3C(=O)N[C@H](C(=O)N[C@H](C(=O)O)c4cc(O)cc(O)c4-c4cc3ccc4O)[C@H](O)c3ccc(c(Cl)c3)Oc3cc2cc(c3O[C@@H]2O[C@H](CO)[C@@H](O)[C@H](O)[C@H]2O[C@H]2C[C@](C)(N)[C@H](O)[C@H](C)O2)Oc2ccc(cc2Cl)[C@H]1O — post-antibiotic effect (Staphylococcus aureus; MRSA ATCC 43300; 1 × MIC): 0.276 h
O=C(O)CCC(=O)OCCN(Cc1ccc(Oc2ccc([N+](=O)[O-])cc2)cc1)C(=O)C(Cl)Cl — IC50 (Leishmania martiniquensis; parasite growth; promastigotes; 72 h): 23.8 ± 6.97 µM
OC[C@H]1O[C@@H](O[C@@H]2[C@@H](O)[C@H](O[C@@H]3[C@@H](O)[C@H](O[C@@H]4[C@@H](O)[C@H](O[C@@H]5[C@@H](O)[C@H](O[C@H]6[C@H](O)[C@@H](CO)OC(O)[C@@H]6O)O[C@H](CO)[C@H]5O)O[C@H](CO)[C@H]4O)O[C@H](CO)[C@H]3O)O[C@H](CO)[C@H]2O)[C@H](O)[C@@H](O)[C@@H]1O (stereo partly shown) — ΔG (Bacteroides uniformis; binding, ITC; pH 7.0, 25 °C, middle domain): -26.9 kcal/mol
N=C(N)c1ccc(OCc2ccc(-c3ccccc3)cc2COc2ccc(C(=N)N)cc2)cc1 — FICI (Pseudomonas aeruginosa; checkerboard; ATCC 27853; unit not given, together with: rifampicin; lower = stronger synergy): 0.094
COc1ccc(C(=O)C#Cc2ccc(O)c(OC)c2)cc1 — biofilm formation (Pseudomonas aeruginosa; static biofilm; PA14; 10 µM, 24 h; reference: DMSO): 73%
COCCOC(=O)C1=C(C)NC(C)=C(C(=O)OC/C=C/c2ccccc2)C1c1cccc([N+](=O)[O-])c1 (stereo not shown) — EC90 (Toxoplasma gondii; parasite growth, luciferase reporter; HFF, tachyzoite; 72 h): 1520 µM
Cn1cnc([N+](=O)[O-])c1Sc1ccccc1C(=O)NCCn1ccc(=O)c2cc3c(cc21)OCO3 — EC50 (HIV-1; viral replication; human PBMC, 92RW009): 19.4 ± 14.9 µM
OC[C@H]1O[C@@H](Oc2cc3c(O[C@@H]4O[C@H](CO)[C@@H](O)[C@H](O)[C@H]4O)cc(O)cc3[o+]c2-c2ccc(O)c(O)c2)[C@H](O)[C@@H](O)[C@@H]1O — IC50 (HIV-1; viral infection; TZM-bl, BaL (CCR5-tropic); 48 h): > 100 µM
Nc1nc(-c2ccccc2)nc2[nH]nc(Nc3ccc(C(F)(F)F)cc3)c12 — clinical score (coxsackievirus B3; NMRI mouse, CVB3 chronic myocarditis; oral, 100 mg/kg twice daily, day 3-10, day 0; direction not given): 0
Cc1cccc(C(=O)C#Cc2ccc(F)c(F)c2)c1 — biofilm formation (Pseudomonas aeruginosa; static biofilm; PA14; 10 µM, 24 h; reference: DMSO): 64%
CCc1nn(C)c2nc(-c3ccc(C(=O)O)cc3)nc(NCc3ccc(F)cc3)c12 — inhibition (Cryptosporidium parvum; parasite growth, immunofluorescence imaging; HCT-8, Iowa; 18 µM): 88.8% and 89.1%
[H]/N=C(/NCCCCC)N/N=C/c1c[nH]c2ccc(OC)cc12 — EC50 (Toxoplasma gondii; parasite growth; HFF, bradyzoite, alkaline-induced): 4.98 µM
CC(=O)N1CCC(C(=O)N2CCN3C(=O)c4cc(-c5ccccc5)ccc4NC(=O)C3C2)CC1 (stereo not shown) — median lifespan (Caenorhabditis elegans; N2; 3.125 µM): 17 days
CC(C)n1ncc2c(C(=O)NCC3(C)CNC3)cc(C3CC3)nc21 — cell protection (Enterovirus D68; cytopathic effect; RD, US/MO/14-18947; 50 nM): -0.133% and 0% and -0.398%
COc1cccc(C(=O)C#Cc2ccc(F)c(F)c2)c1 — biofilm formation (Pseudomonas aeruginosa; static biofilm; PA14; 10 µM, 24 h, static; reference: DMSO): 83%
Cc1cccc(CNC(=O)c2cn(CCNC(=O)c3ccccc3Sc3c([N+](=O)[O-])ncn3C)c3cc4c(cc3c2=O)OC(F)(F)O4)n1 — EC50 (HIV-1; viral cytopathic effect, XTT; CEM-SS, RF; together with: glutathione 1 mM): 10 ± 1.81 µM
